# Measured values collected from several papers.
# Each line is one published result; not all experiments were run side by side. Numbers after ± are the reported error.
# DRD3: D(3) dopamine receptor (DRD3, Homo sapiens, UniProt P35462)
# Chain of UniProt P06276 (whole entry, looked up): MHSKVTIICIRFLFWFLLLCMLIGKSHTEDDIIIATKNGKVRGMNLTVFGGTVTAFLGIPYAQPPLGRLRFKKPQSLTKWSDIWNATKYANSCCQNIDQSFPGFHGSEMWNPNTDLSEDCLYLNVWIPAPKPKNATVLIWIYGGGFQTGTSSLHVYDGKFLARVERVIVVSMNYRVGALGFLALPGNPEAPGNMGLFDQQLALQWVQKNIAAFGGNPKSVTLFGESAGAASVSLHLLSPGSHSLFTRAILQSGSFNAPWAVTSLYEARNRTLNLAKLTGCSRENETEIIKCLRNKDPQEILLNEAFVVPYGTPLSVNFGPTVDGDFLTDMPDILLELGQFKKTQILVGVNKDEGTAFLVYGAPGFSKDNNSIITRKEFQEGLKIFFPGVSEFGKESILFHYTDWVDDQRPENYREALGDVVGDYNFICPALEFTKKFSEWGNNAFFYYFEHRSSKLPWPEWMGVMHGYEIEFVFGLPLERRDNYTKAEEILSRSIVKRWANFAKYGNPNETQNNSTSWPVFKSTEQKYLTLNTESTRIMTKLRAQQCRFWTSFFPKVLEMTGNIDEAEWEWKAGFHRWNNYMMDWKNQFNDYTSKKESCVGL
# Chain of UniProt P35462 (whole entry, looked up): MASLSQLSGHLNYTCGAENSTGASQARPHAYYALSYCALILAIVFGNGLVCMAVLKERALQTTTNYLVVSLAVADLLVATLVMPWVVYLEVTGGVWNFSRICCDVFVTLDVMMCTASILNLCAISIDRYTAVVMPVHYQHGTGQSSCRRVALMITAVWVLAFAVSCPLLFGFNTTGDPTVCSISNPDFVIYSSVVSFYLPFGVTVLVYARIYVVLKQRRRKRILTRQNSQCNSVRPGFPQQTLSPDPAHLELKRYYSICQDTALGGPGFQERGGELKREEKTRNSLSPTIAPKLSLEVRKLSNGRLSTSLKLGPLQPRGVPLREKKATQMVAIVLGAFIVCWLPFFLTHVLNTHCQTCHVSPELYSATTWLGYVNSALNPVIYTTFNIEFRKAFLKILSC
# Chain of UniProt P81908 (whole entry, looked up): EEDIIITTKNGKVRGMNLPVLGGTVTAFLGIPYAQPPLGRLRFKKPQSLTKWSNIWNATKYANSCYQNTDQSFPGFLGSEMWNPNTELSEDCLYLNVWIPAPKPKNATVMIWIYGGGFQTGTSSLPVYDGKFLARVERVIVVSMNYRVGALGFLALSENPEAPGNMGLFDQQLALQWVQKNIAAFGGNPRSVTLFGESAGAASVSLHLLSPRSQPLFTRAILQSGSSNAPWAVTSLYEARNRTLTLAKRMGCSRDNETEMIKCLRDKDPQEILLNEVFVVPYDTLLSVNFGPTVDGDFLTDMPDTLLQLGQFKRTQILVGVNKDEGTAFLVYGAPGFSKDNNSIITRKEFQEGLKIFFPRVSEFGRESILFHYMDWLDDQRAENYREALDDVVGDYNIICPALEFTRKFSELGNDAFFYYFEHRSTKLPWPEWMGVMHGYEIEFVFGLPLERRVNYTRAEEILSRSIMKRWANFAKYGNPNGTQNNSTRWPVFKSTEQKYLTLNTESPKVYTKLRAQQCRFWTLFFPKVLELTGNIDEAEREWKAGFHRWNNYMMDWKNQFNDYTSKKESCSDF
# Chain of UniProt O43704 (whole entry, looked up): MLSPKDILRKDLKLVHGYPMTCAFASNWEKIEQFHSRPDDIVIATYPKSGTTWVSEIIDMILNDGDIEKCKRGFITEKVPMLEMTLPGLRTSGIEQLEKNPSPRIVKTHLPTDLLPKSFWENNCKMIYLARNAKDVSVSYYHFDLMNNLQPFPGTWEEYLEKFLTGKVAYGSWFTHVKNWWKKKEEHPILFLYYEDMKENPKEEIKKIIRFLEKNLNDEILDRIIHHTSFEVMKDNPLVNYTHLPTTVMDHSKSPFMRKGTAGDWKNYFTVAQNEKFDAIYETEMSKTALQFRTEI
# Chain of UniProt P00519 (whole entry, looked up): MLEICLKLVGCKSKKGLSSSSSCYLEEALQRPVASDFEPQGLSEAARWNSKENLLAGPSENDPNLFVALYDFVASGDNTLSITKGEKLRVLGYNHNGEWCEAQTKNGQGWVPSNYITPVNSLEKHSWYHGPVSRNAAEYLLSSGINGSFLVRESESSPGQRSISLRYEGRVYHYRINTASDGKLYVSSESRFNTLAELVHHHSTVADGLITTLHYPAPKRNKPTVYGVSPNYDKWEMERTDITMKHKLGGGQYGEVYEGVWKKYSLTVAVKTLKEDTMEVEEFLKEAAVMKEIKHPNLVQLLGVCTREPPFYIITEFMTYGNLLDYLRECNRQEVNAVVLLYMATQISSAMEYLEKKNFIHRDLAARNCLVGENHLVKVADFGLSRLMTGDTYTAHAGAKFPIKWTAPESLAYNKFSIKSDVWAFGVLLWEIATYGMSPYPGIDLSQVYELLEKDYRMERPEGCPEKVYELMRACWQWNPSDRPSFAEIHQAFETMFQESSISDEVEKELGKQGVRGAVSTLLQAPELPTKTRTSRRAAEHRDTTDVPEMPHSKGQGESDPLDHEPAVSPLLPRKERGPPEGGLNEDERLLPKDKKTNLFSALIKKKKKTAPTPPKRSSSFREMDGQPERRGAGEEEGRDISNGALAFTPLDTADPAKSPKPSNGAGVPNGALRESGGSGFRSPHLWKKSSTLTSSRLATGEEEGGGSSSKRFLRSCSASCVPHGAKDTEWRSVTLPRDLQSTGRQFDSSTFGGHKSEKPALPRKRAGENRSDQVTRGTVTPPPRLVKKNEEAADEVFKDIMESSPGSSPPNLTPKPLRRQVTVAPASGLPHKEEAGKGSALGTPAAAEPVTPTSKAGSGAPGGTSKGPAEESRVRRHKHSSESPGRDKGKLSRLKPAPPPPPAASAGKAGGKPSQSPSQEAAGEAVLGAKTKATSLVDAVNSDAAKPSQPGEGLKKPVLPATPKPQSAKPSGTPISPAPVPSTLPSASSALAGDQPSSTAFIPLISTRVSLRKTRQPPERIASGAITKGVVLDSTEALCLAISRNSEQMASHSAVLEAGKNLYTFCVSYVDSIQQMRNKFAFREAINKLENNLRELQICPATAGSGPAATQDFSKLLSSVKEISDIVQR
# Chain of UniProt Q9C0E2 (whole entry, looked up): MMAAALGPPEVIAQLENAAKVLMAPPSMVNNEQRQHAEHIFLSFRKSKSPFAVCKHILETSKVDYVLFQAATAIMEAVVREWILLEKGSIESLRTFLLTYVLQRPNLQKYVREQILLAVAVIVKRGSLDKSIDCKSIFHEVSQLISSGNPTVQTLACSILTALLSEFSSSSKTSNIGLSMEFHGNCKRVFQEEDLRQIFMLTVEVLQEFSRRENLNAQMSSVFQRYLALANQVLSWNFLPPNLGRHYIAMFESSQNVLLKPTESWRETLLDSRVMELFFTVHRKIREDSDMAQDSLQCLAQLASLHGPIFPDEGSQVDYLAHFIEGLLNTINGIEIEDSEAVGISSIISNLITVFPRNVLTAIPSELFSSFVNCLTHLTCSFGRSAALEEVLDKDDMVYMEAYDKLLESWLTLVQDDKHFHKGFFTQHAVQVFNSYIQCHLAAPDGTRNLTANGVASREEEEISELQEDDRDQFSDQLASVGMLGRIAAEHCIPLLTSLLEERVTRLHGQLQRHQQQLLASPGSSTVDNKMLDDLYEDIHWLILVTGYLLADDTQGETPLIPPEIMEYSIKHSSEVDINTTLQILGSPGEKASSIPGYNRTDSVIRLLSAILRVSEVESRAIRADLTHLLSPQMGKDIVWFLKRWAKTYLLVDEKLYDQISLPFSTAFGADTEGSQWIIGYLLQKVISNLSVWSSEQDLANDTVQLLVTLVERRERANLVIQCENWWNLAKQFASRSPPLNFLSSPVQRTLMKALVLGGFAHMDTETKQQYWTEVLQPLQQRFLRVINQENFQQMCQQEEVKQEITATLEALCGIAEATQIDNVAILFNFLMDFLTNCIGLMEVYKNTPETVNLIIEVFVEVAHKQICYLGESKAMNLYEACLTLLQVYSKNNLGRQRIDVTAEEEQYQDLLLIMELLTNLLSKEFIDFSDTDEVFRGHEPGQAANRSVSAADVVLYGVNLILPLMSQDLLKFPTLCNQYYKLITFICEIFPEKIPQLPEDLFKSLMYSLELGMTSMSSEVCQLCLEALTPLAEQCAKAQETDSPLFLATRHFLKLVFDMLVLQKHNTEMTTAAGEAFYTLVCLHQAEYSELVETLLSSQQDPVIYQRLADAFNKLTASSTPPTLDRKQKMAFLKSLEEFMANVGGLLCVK
# Chain of UniProt Q05941 (whole entry, looked up): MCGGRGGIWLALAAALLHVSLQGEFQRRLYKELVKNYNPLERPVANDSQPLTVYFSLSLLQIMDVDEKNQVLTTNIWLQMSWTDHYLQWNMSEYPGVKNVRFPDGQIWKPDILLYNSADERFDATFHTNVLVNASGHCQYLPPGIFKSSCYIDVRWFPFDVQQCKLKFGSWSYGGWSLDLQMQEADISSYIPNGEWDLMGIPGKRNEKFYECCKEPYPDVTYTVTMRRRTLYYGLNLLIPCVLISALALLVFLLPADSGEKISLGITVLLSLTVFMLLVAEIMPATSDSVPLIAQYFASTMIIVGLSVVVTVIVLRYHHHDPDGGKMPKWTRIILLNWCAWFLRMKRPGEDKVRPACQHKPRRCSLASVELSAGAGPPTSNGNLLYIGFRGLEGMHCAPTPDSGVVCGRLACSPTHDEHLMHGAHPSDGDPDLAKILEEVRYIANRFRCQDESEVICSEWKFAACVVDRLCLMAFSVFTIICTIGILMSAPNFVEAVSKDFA
# Chain of UniProt P48145 (whole entry, looked up): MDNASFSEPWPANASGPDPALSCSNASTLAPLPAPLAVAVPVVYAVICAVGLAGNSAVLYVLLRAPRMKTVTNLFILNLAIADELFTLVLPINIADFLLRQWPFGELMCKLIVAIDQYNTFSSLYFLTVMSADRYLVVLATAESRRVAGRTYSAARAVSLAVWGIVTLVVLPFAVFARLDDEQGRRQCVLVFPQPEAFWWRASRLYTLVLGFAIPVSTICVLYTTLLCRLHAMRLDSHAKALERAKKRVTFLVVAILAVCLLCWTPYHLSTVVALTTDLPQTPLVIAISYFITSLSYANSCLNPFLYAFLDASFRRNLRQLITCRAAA
Compound,target or system,test,test system,conditions,how to read,endpoint,value
CC(C)C[C@@H](C=O)NC(=O)[C@H](CC(C)C)NC(=O)[C@H](CC(C)C)NC(=O)OCc1ccccc1,"Gag-Pol polyprotein, integrase (gag-pol, Human immunodeficiency virus 1, UniProt P12497)","integrase multimerization, BiFC flow cytometry",,10 µM,reference: DMSO,AUC ratio,1.39
NCc1cc(=O)[nH]o1,"GABA-A receptor; alpha-1/beta-2/gamma-2 (Rattus norvegicus, UniProt P18508+P62813+P63138)","membrane potential, agonist, QP-DHM primary screen",HEK293 expressing GABAA,10 µM,direction not given,normalized score,0.965
COc1cc(N)c(Cl)cc1C(=O)NC1CN2CCC1CC2 (stereo not drawn),"HCAR3 (Homo sapiens, UniProt P49019)","β-arrestin recruitment, TANGO luminescence, measured: GPR109B",,concentration not given,reference: basal luminescence,log2 fold change,0.203
COc1ccc(N2C(=O)N(c3c(C)cccc3Cl)Cc3cnc(Nc4ccc(C5CCN(C)CC5)cc4OC)nc32)nc1,"FGFR1 (Homo sapiens, UniProt P11362)",kinase activity,,0.5 µM,,inhibition,68%
C[C@@H]1NC(=O)N[C@@H]1CCCCCC(=O)N1CCN(C(=O)c2ccc(/C=C/c3n[nH]c4ccc(-c5ccc(S(=O)(=O)F)cc5)cc34)cc2)CC1,"ABL1 (Homo sapiens, UniProt P00519)",covalent inhibitor,recombinant protein,,,kinact/KI,23 M⁻¹ s⁻¹
CCN(CC)[C@@H]1CCc2c(F)ccc(O)c2C1,Plasmodium falciparum,,Dd2,,,IC50,2 µM
CCNC(=O)NCCCOc1cccc(CN2CCCCC2)c1,"Cholinesterase (BCHE, Homo sapiens, UniProt P06276)",,,"concentration not given, Triton",,efficacy,-59.5 ± 8.35%
CC(=O)N[C@@H](CS)C(=O)N[C@@H](CCCNC(=N)N)C(=O)N[C@@H](CCCCN)C(=O)N[C@@H](CCCNC(=N)N)C(=O)N[C@@H](CC(N)=O)C(=O)N[C@@H](CCCNC(=N)N)C(=O)N[C@@H](CO)C(=O)N1CCC[C@H]1C(=O)N[C@@H](CCC(=O)O)C(=O)N[C@@H](CCCNC(=N)N)C(N)=O,"WDR5 (Homo sapiens, UniProt P61964)","binding, competitor of LANA peptide, ITC",,"pH 7.0, 20 °C, WIN motif peptide",,ΔH,-10.5 kcal/mol
COc1cc(/C=C/c2ccc(O)cc2)cc(OC)c1,"O-methyltransferase (Sorghum bicolor, UniProt A0A1B6PFV1, W279A)",isothermal titration calorimetry,,added: RSV,,-T∆S,0.653 kcal/mol
COc1cc(Nc2ncc(F)c(Nc3ccc4c(n3)NC(=O)C(C)(C)O4)n2)cc(OC)c1OC,"Cholinesterase (BCHE, Homo sapiens, UniProt P06276)",,,butyryl,,IC50,> 10 µM
O=C1[O][Pt]2([NH][C@@H]3CCCC[C@H]3[NH]2)[O]C1=O,"Chrna7 (Rattus norvegicus, UniProt Q05941)",inhibitor,,added: acetylcholine 30 µM,,Hill coefficient,2.4 ± 0.2
O=C(Nc1cccnn1)N1CCC(=Cc2cccc(Oc3ccc(C(F)(F)F)cn3)c2)CC1,DRD3,radioligand binding,,"10 µM, added: [3H]spiperone",,inhibition of binding,23%
OC1CCN(c2ncnc3[nH]cc(-c4cccc(Cl)c4)c23)CC1,"LRRK2 (Homo sapiens, UniProt Q5S007)",NanoBRET,cells,,"reference: PF-06447475, fold lower potency",potency ratio,> 13 fold
CN1CCN(c2cc(-c3ccncc3)c(-c3ccc4ccccc4c3)nn2)CC1,"NPBWR1 (Homo sapiens, UniProt P48145)","antagonist, FLIPR",,10 µM,,inhibition,29.7%
CO[C@H]1C[C@@H]2CC[C@@H](C)[C@@](O)(O2)C(=O)C(=O)N2CCCC[C@H]2C(=O)O[C@H]([C@H](C)C[C@@H]2CC[C@@H](OC(=O)NCCOCCOCCOCCOCCOCCOCCOCCOCCC(=O)N3CCc4cc(Cn5nc(-c6ccc7oc(N)nc7c6)c6c(N)ncnc65)ccc4C3)[C@H](OC)C2)C[C@@H](O)[C@H](C)/C=C(\C)[C@@H](O)[C@@H](OC)C(=O)[C@H](C)C[C@H](C)/C=C/C=C/C=C/1C,,"phase 1 dose escalation, measured: fatigue",advanced solid tumour patients,"intravenous, 10 mg weekly, grade ≥3",,TRAE incidence,12.5%
CCN(CC)CCCC[C@H](NC(=O)[C@H](CC(C)C)NC(=O)[C@H](C)NC(=O)[C@H](Cc1ccccc1)NC(=O)c1ccc(C(C)(C)C)cc1)C(=O)N[C@@H](CO)C(=O)OC,"HRH1 (Homo sapiens, UniProt P35367)","antagonist, radioligand binding",,10 µM,reference: control binding,specific binding,106%
COc1cc2c(Oc3ccc4[nH]c(C)cc4c3F)ccnc2cc1OCC1(N)CC1,,,paediatric recurrent refractory sarcoma,12 mg,,Nausea incidence,9.1%
O=C(O)C[C@H](NC(=O)[C@H](CC(=O)O)NC(=O)[C@H](CC(=O)O)NC(=O)[C@H](CC(=O)O)NC(=O)[C@H](CC(=O)O)NC(=O)[C@H](CC(=O)O)NC(=O)[C@H](CC(=O)O)NC(=O)[C@H](CC(=O)O)NC(=O)[C@H](CC(=O)O)NC(=O)[C@H](CC(=O)O)NC(=O)[C@H](CC(=O)O)NC(=O)[C@H](CCCCNC(=O)c1ccc(C(=O)NCCOCCOB2BBBBBB3BBBB3B2)cc1)NC(=O)CN1CCN(CC(=O)O)CCN(CC(=O)O)CCN(CC(=O)O)CC1)C(=O)O [gallium-67 labelled],,,"ddY male mice, liver","intravenous, 37 kBq, 3 h",,tissue uptake,0.13 %ID/g
C[C@H]1CN(c2n[nH]c3nc(N[C@H]4CC[C@H](NS(=O)(=O)CCC(F)(F)F)CC4)ncc23)CCO1,"Exportin-4 (Homo sapiens, UniProt Q9C0E2)","Kinobeads competition, measured: XPO4",,"0.8 µM, unit not given",reference: vehicle,remaining binding,1.26
C#C[C@H](C)NCC(=O)O,"putA, PRODH domain (Sinorhizobium meliloti, UniProt F7X6I3, del84-189)",inactivator,,,,KI inactivation,9100 ± 5200 µM
Cc1[nH]c(C)c(S(=O)(=O)Nc2ccc(S(=O)(=O)F)c(F)c2)c1C(=O)N1CCC(F)(F)C1,DRD3,"β-arrestin recruitment, agonist, PathHunter",,,reference: dopamine,Imax,99 ± 2%
O=C(O)C(F)(F)C(F)(F)C(F)(F)C(F)(F)C(F)(F)C(F)(F)C(F)(F)F,"SLC22A12 (Homo sapiens, UniProt Q96S37)","uptake, substrate, two-transporter equation fit",HEK293 cells stably expressing SLC22A12,"2.5 min, 37 °C",,Jmax,1520 ± 841 pmol/min/mg protein
Cc1nn(C)cc1-c1nc2c(N3CCN(Cc4ccc(Cl)cc4)CC3)c(Cl)cnc2[nH]1,"MAPK4 (Homo sapiens, UniProt P31152)",KINOMEscan,,1 µM,reference: DMSO control,remaining binding,96%
Cc1cc(-c2ccccc2)nnc1NCCN1CCOCC1,"Cholinesterase (BCHE, Homo sapiens, UniProt P06276)",,,"concentration not given, Triton",,efficacy,-98.2 ± 5.6%
Clc1ccc(-c2cc(Cl)ccc2Cl)cc1,"Androgen receptor (AR, Homo sapiens, UniProt P10275)","reporter gene, antagonist",,"40 µM, added: DHT 2 nM",reference: DHT 2 nM,maximum activity,23%
Oc1cc(Br)cc(Br)c1Oc1ccc(Br)cc1Br,"SULT1B1 (Homo sapiens, UniProt O43704)","sulfonation, substrate",,,,apparent Vmax,49.5 nmol/min/mg protein
Nc1ncnc2c1ncn2[C@@H]1O[C@H](COP(=O)(O)OP(=O)(O)OP(=O)(O)O)[C@@H](O)[C@H]1O,Na+/K+-ATPase,,,,,Km,270 µM
COC(=O)[C@H]1[C@H]2C[C@@H]3c4[nH]c5cc(OC)ccc5c4CCN3C[C@H]2C[C@@H](OC(=O)c2cc(OC)c(OC)c(OC)c2)[C@@H]1OC,Plasmodium falciparum,,W2,,,IC50,0.794 µM
O=C(c1ccc(Cl)cc1)N1CCN2C(=O)N(OC(=O)N3CCOc4ccccc43)C(=O)C2C1 (stereo not drawn),"Lysophosphatidylserine lipase ABHD12 (Homo sapiens, UniProt Q8N2K0)","enzyme activity, inhibitor, MS-based ABPP",SW-620 in situ,"10 µM, 2 h, 37 °C","reference: compound over DMSO, lower = stronger inhibition",median ratio,1.13
CN(C(=O)n1cnc(-c2ccc[n+]([O-])c2)c1)C1CCCCC1,"AGTR1 (Homo sapiens, UniProt P30556)","radioligand binding, inhibitor",,10 µM,,inhibition,6%
CCN(CC)C(=O)Oc1ccc(/C=C/C(=O)NC2CCN(Cc3ccccc3)CC2)cc1,"Cholinesterase (BCHE, Equus caballus, UniProt P81908)",Ellman,equine serum BuChE,,reference: AChE IC50 over BuChE IC50,selectivity ratio,0.3
O=C(Nc1cnccc1Cl)N1CCN(Cc2ccc3c(c2)OC(F)(F)O3)CC1,DRD3,radioligand binding,,"50 µM, added: [3H]spiperone",,inhibition of binding,26%
Cc1cc(C)n2c1C=C1C=CC(CCC(=O)Nc3ccc(OCC(=O)N[C@@H]4C(=O)N5[C@@H]4SC(C)(C)[C@@H]5C(=O)[O-])cc3)=[N+]1[B-]2(F)F.[Na+],"Penicillin-binding protein 2B (Streptococcus pneumoniae, UniProt P0A3M6)",whole-cell time course,live Streptococcus pneumoniae cells,,,kinact/KI,15700 ± 500 M⁻¹ s⁻¹

# A few entries again:
Compound,target or system,test,test system,conditions,how to read,endpoint,value
O=C(Nc1cnccc1Cl)N1CCN(Cc2ccc3c(c2)OC(F)(F)O3)CC1,DRD3,radioligand binding,,"50 µM, added: [3H]spiperone",,inhibition of binding,26%
COc1cc2c(Oc3ccc4[nH]c(C)cc4c3F)ccnc2cc1OCC1(N)CC1,,,paediatric recurrent refractory sarcoma,12 mg,,Nausea incidence,9.1%
Cc1[nH]c(C)c(S(=O)(=O)Nc2ccc(S(=O)(=O)F)c(F)c2)c1C(=O)N1CCC(F)(F)C1,DRD3,"β-arrestin recruitment, agonist, PathHunter",,,reference: dopamine,Imax,99 ± 2%
